Measured values from different studies.
Protocols differ between the studies behind these lines. “And” joins repeats or separate records; there may be more than shown. ± marks the error that the study gave.

CC(C)c1nc(N(C)S(C)(=O)=O)nc(-c2ccc(F)cc2)c1/C=C/[C@@H](O)C[C@@H](O)CC(=O)O — half-life (Wistar albino rat, both sexes, plasma; oral, 20 mg/kg): 7.9 h
CCn1cc(Cl)c2c(Cc3ccc(C(F)(F)F)nc3)n(C)nc2c1=O — half-life (Sprague-Dawley rat, male; intravenous, 1 mg/kg): 1 ± 0.2 h
O=C(O)C1=CO[C@@H](O[C@@H]2O[C@H](CO)[C@@H](O)[C@H](O)[C@H]2O)[C@@H]2C(CO)=CC[C@H]12 — half-life (rat, plasma; oral, 500 mg/kg Eu extract, dosed as Eu extract): 2.27 ± 1.14 h
Cn1cnc([N+](=O)[O-])c1Sc1ccccc1C(=O)NCCn1ccc(=O)c2cc3c(cc21)OCO3 — half-life (LC-UV/MS; Sprague-Dawley rat, whole blood; 10 µM, 37 °C): 0.312 h
Cc1nc(-c2cnc(NC(C)C)n(C)c2=O)ccc1Oc1ccnc(-c2cnn(C)c2)c1 — half-life (Sprague-Dawley rat, male, plasma; intravenous, 1 mg/kg, crossover study): 14.2 h
CCc1cc(C(=O)NC)c2nccc(N3CCc4c(cc(Cn5ccnc5)cc4-c4cn(C)nc4C(F)(F)F)C3=O)c2c1 — half-life (Sprague Dawley rat, male, plasma; oral, 50 mg/kg once daily, 7 days, toxicokinetic satellite group): 3.2 h
Cc1nccn1CC1CCc2c(c3ccccc3n2C)C1=O (stereo not shown) — half-life (male Sprague Dawley rat, plasma; iv bolus, 5 mg/kg, together with: tariquidar 15 mg/kg iv): 0.54 h
Cn1nc2c(=O)n(C3CC3)ncc2c1[C@](N)(c1ccc(C(F)(F)F)c(Cl)c1)C1CC1 — half-life (Sprague-Dawley rat, male; intravenous, 1 mg/kg): 15 ± 1.2 h
CNC(=O)c1ccc(N2C(=S)N(c3ccc(C#N)c(C(F)(F)F)c3)C(=O)C2(C)C)cc1F — half-life (HPLC-MS/MS, item: free compound; Sprague-Dawley rats, plasma; 1.0 mg/kg): ~42.5 h
Nc1nc(O)c2ncn(COC(CO)CO)c2n1 — half-life (Sprague-Dawley rat, male; oral, 10 mg/kg): 1.8 ± 0.317 h
Cc1nc2cccc(OCC(C)(C)C(=O)NC(C)C)c2c(N)c1C(=O)O — half-life (Sprague-Dawley rat, male, plasma; oral, 30 mg/kg): 1.52 h
OCC1=C[C@@H](O)[C@@H]2C=CO[C@@H](O[C@@H]3O[C@H](CO)[C@@H](O)[C@H](O)[C@H]3O)[C@H]12 — half-life (rat, plasma; oral, 500 mg/kg Eu + 217 mg/kg Pc extract, dosed as combined Eu and Pc extracts): 1.47 ± 0.79 h
CSc1ccccc1C(=O)NCCn1cc(C(=O)NCc2cccc(C)n2)c(=O)c2cc3c(cc21)OC(F)(F)O3 — half-life (Sprague-Dawley rat, male, plasma; intravenous, 20 mg/kg of parent drug): 8.85 h
C1=C/COCc2cc(ccc2OCCN2CCCC2)Nc2nccc(n2)-c2cccc(c2)COC/1 — half-life (LC-MS/MS; Sprague-Dawley rat, male, plasma; oral, 36 mg/kg, together with: voriconazole 30 mg/kg oral): 10.1 ± 2.06 h
N=C(N)NCCNC(=O)C1(Nc2ccccc2)CCN(Cc2ccccc2)CC1 — half-life (female Sprague-Dawley rats, plasma; intravenous, 2.5 mg/kg): 0.9 ± 0.1 h
Cc1cccc(CNC(=O)c2cn(CCNC(=O)c3ccccc3S)c3cc4c(cc3c2=O)OC(F)(F)O4)n1 — half-life (Sprague-Dawley rat, male, plasma; intravenous, 5 mg/kg of parent compound): ~1 h
CC(C)[C@@H](CN1CC[C@@](C)(c2cccc(O)c2)[C@@H](C)C1)NC(=O)[C@H]1Cc2ccc(O)cc2CN1 — half-life (Sprague-Dawley rat, plasma; intraperitoneal, 3 mg/kg): 23.4 h
COC(=O)C1=CO[C@@H](O[C@@H]2O[C@H](CO)[C@@H](O)[C@H](O)[C@H]2O)[C@@H]2C(CO)=CC[C@H]12 — half-life (rat, plasma; oral, 500 mg/kg Eu extract, dosed as Eu extract): 1.37 ± 0.33 h
CC[C@@](N)(c1cnc(C(F)(F)F)c(Cl)c1)c1c2ccn(C3CC3)c(=O)c2nn1C — half-life (Sprague-Dawley rat, male; intravenous, 1 mg/kg): 13 ± 2 h
CC(C)C[C@H](NC(=O)[C@H](CC(C)C)NC(=O)CNC(=O)[C@H](C)NC(=O)[C@H](C)NC(=O)[C@H](CCCNC(=N)N)NC(=O)CNC(=O)CCCCNC(=O)CCCCNC(=O)CCCCNC(=O)[C@H](CCCCN)NC(=O)[C@H](Cc1ccc(O)cc1)NC(=O)CCc1c[nH]c2ccccc12)C(N)=O — half-life (Sprague-Dawley rat, male, plasma; 1 µM): 0.652 ± 0.075 h
Cc1cccc(CNC(=O)c2cn(CCNC(=O)c3ccccc3Sc3c([N+](=O)[O-])ncn3C)c3cc4c(cc3c2=O)OC(F)(F)O4)n1 — half-life (Sprague-Dawley rat, male, plasma; intramuscular, 3 mg/kg): 6.6 ± 1.81 h
Cc1ccc(S(=O)(=O)n2cc3c4c2C(=O)C(NCc2ccc(Cl)cc2)=CC4=NCC3)cc1 — half-life (Sprague-Dawley rat, plasma; intravenous, 5 mg/kg, two-compartment model): 1.61 h and 1.12 h
O=c1oc2c(O)c(O)cc3c(=O)oc4c(O)c(O)cc1c4c23 — half-life (rat, plasma; oral, 500 mg/kg extract, extract): 2.51 ± 0.27 h
Cc1cc(NC(=O)c2cccc(NC(=O)/C=C/CN(C)C)c2)ccc1Nc1nccc(-c2cccnc2)n1 — half-life (rat Wistar male, primary hepatocytes; 1 µM): 3.15 h
N=C(N)NCCC[C@H](NC(=O)[C@@H](NC(=O)[C@H](Cc1cscn1)NC(=O)CCc1ccccc1)C1CCCCC1)C(=O)c1nc2ccccc2s1 — half-life (Sprague-Dawley rat, male, plasma; 85 µM): > 24 h

A few entries again:
Nc1nc(O)c2ncn(COC(CO)CO)c2n1 — half-life (Sprague-Dawley rat, male; oral, 10 mg/kg): 1.8 ± 0.317 h
Cc1nc2cccc(OCC(C)(C)C(=O)NC(C)C)c2c(N)c1C(=O)O — half-life (Sprague-Dawley rat, male, plasma; oral, 30 mg/kg): 1.52 h
OCC1=C[C@@H](O)[C@@H]2C=CO[C@@H](O[C@@H]3O[C@H](CO)[C@@H](O)[C@H](O)[C@H]3O)[C@H]12 — half-life (rat, plasma; oral, 500 mg/kg Eu + 217 mg/kg Pc extract, dosed as combined Eu and Pc extracts): 1.47 ± 0.79 h
